Experimental data gathered from unrelated publications.
Each numbered part is a random draw from the data of one study; scales do not carry over between parts.

Block 1 — technique: RNAcompete; form: RNA; matrix: in vitro; concentration: 20 nM; notes: 7-mer, probes averaged, single round; relative to: mean of 7-mers; direction: higher = stronger binding
Target: PABPC1L2, full length, GST fusion (mouse, UniProt A0ABA7IW68)
Construct (chain): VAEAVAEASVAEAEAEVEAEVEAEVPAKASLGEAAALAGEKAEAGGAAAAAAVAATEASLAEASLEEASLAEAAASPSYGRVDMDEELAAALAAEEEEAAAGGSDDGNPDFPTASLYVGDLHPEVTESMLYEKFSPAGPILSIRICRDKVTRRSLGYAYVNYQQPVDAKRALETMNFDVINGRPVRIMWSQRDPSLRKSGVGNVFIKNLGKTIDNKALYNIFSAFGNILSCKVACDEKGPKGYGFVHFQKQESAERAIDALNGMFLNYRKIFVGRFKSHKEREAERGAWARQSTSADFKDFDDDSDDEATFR
Oligonucleotide	7-mer Z-score
AUUGCCA	-0.144
CGCUUGU	-0.456
AGAACAA	0.412
ACCAUGU	-0.0718
AGUAGAG	-0.0391
UUGUACG	-0.224
UUACAGC	-0.188
AAUUGCA	0.26
GCGUAGA	0.191
CGGAUCG	-0.164
UUUAAGA	0.151
AGUCACA	0.00798
UGAGUUC	-0.394
ACGAAAG	0.363
AUCCAGG	-0.213
UCUAAGU	-0.36
UCGGUGA	-0.195
GCCUAAG	-0.324
UCCAGAC	-0.124
CAGCGGA	-0.0645
CGUCGCA	-0.371

Block 2 — technique: protein binding microarray; form: double-stranded DNA, one strand shown; matrix: in vitro; concentration: not given; relative to: not given; direction: higher = stronger binding
Target: Histone acetyltransferase KAT6A, both winged helices, GST fusion (KAT6A, Homo sapiens, UniProt Q92794, residues 1-181)
Notes: 8-mer, flanks averaged, mean of 2 arrays, mostly near background
Residues (chain): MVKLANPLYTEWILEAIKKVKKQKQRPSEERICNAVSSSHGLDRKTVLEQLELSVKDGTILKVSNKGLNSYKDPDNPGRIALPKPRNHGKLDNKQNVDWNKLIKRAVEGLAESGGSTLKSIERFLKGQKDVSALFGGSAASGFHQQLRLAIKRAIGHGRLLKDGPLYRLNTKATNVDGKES
Oligonucleotide	E-score
AAAGCAAG	-0.0805
GGTTAGAC	-0.0606
ACCATTCA	-0.124
ATTCTCCG	0.11
CCAAATAC	-0.246
GGAAATAA	-0.131
ACTCCACT	-0.185
ACGGGGTA	0.143
AGGCAACA	-0.12
GCCACTGA	-0.199
AGCCATGG	-0.221
CCACAATA	-0.209
TAGCGTAA	0.126
GGACGATA	-0.143
CAACCGTA	0.111
GTAGTCTA	-0.0695
GCCCTATA	-0.0932
AAACGCGA	0.153
GATCTCGA	0.0841
GCGGCTAC	0.273
ACAATTAT	-0.00432
CCCGTCTA	0.188
TGAAGAAA	-0.0441
AGAGTTAG	-0.171
GGACTTAC	-0.0106

Block 3 — technique: RNA Bind-n-Seq; form: RNA; matrix: in vitro; concentration: 365 nM; relative to: no-protein control; direction: higher = stronger binding
Target: RNA binding protein fox-1 homolog 2, RRM domain, GST-SBP tag (RBFOX2, Homo sapiens, UniProt O43251-10, residues 100-194)
Notes: natural RNA segment, single round, ends assumed
Constant ends, left off below: GGGAGUUCUACAGUCCGACGAUC … UGGAAUUCUCGGGUGCCAA
Target sequence (chain): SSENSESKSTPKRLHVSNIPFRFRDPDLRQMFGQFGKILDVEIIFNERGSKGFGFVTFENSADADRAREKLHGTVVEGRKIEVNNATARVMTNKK
Oligonucleotide	RBNS enrichment (R)
CCAUGUAACGCACCUGUAACUUAUCAGCCCAUGUUCAUUACGUAACUUUGUACUGUACGUCACAGUGAUGAGUGUGACAGCUCAGCUCUUUGAUUUCAUAGUGAGUUUUC	0.398
CGAGAUGAAGUUCUUUAAGUGAUGUAAGCACCCUCACCCUUACUCAAAACUUCCCACCCGACUAAAUUACCAGCAGAUAAACACUCUUCUGUGUGAGUAAACCGAGAGUU	0.807
CCUUGCCUUUCCUUUCCUGAAACUCUUUCAACACAACUGUGUCUAUAUGACUACGGCUCAUGCUUCCAAGGUCAGCUCACAUGUGACCUCUGUGAGCUGUUCCCUCGCCU	1.15
AUCAAGAGACCAUUUUAUGACACAUUAAGAAGAAAGAACCUUUUUGAAACAAACUCCAGGCCCUUUGUUGCCAGUGGCUGGGCCUAAGGGUUGCCCCGGGACCGUGCUCA	0.851
CAUAUUUUUUUCCUUACAUAAACAUCAGCUUAGGCAGUAUAAAAAAUAGGACUUGUUUUUUGUUUUUGUUUUGUUGCACUGAAGUAUGACAAAUAGUGUUAUUGGAAGGG	0.412
GUCCAGUUUCAAGGCAUGUACAAUAAGCAUGGAGUCGUAUUGAUGAGGACUUACCUCCUGAAGAUAUGCUUGUUGCUUUAUGAUAUAUGUAAACUAUUCUUUAGAAAAAU	2.76
CCUCUUCUUAUAAACGCCCUUCUAAUAAACUUUUCACCGUAAAGCUCCUGAGACAGGAGCACAGUCUAUUCCCUGCUGCUGUCUCUGGGGAAAGGGAUUUACAAGGGGAC	0.313
UAUUCUUAAUAUCCUUUUAAGAAUAUGGAGAUGAAGAUUGUUUUCUCCAAUUUUCUGUGCCAUUUUAAAUUUAACUUUGACAUCCAGCUAUAGACAGAAAUAAUAAGCCA	0.603
GAAGAUAAAGGGGCAGGAUCAAGGCUUUGUUUGAUCAUUGACCUACCCCCCCCCUCAGGUAGAUUCCCUAGGACAAUGCCAAACCCAGUUUAAGAGUUCCGAAACUGGAG	0.614
GCCCUGACCUUCUCCUGACCUGGCCUUUGACUCCCCGGAGUGGAGUGGGGUGGGAGAACCUCCUGGGCCGCCAGCCAGAGCCGGUCUUUAGGCUGUGUUGUUCGCCCAGG	0.255
GUCAAGGUUUAUUUUCACAUGAGUCCAGCUUGCAGCAAGUAAUCUUCAAAUAUUCCAGUAAGUUUUGAAAUAAUGAAUGCAUUGAAAAUAGCAUUGUUGGAAUUUAUUCC	1.04
CCGUAAAUGGCAUUUUACAUGACUGCAAGUAUUGUUAUACCGAAUCCUAUUUUAAAAGAGUUUUAGUAACGGUGAGCUGAGAAAUUCUGGUCAUGGUGAGCAGCAGGCGC	0.585

Block 4 — technique: universal PBM; form: double-stranded DNA, one strand shown; matrix: in vitro; concentration: 600 nM; direction: higher = stronger binding
Target: Sal-like protein 4, full length isoform A (SALL4, Homo sapiens, UniProt Q9UJQ4, residues 1-1053)
Sequence of UniProt Q9UJQ4 (whole entry, looked up): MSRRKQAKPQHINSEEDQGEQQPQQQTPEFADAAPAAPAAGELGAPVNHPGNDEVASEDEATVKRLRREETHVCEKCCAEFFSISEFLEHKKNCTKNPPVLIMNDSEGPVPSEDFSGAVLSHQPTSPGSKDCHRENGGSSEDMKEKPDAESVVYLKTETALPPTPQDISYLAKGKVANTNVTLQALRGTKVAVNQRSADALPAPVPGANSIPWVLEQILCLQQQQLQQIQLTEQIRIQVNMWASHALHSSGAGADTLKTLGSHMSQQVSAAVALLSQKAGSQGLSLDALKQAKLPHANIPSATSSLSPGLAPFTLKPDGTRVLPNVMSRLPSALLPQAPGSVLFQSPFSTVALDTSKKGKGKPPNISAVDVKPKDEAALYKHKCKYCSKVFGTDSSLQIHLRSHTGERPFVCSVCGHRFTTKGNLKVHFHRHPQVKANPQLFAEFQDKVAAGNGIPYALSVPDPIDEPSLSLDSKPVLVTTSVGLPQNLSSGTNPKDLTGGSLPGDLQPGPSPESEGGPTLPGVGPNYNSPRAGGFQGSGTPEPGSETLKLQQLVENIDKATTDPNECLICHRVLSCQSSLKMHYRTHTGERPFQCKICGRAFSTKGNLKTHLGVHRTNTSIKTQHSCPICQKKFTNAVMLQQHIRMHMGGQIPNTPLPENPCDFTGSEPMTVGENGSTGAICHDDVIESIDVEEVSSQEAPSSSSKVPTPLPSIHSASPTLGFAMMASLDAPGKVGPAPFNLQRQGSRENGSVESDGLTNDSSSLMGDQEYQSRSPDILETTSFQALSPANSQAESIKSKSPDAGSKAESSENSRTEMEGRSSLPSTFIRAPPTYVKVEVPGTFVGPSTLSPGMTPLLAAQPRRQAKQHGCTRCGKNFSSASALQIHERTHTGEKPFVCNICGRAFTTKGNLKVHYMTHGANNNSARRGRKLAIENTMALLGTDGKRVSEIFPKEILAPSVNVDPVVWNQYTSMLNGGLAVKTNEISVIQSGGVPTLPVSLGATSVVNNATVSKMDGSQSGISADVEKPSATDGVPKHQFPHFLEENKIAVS
Notes: 8-mer, flanks averaged, mean of replicates
Oligonucleotide	E-score
GAGTAGGC	-0.204
AAATATTC	0.415
CCTCAAGC	-0.256
CGAGTGTC	-0.275
AGCAGAAA	0.195
GACGGGCA	-0.219
ATGGTTGC	-0.151
AATATGGT	0.33
TAGACTAA	0.0612
AGTGTTTC	0.0879
ACCTTTAA	0.169
CAAAATGA	0.226
CCTAAGTC	-0.272
AACTCTCA	0.12
AGTTGCTC	-0.171
AACTTAGC	0.035
TACGTGAA	0.0988
AAGCCTAG	-0.114
ACCTCATA	0.119
TACCGGAA	-0.0384
CTCATGAA	0.132
CAAACTCA	0.0489
AACATTAA	0.328
CTATCAAC	0.129
CATGGTCG	-0.138

Block 5 — technique: aptamer microarray, sandwich; form: DNA with 2'F-ANA; matrix: in vitro; concentration: 200 nM; with: Cy3 exosite-II aptamer, 400 nM; direction: higher = stronger binding; oligonucleotide: GGTTGGTGTGGTTGG
Target: Prothrombin, mature alpha-thrombin (F2, Homo sapiens, UniProt P00734)
Notes: whole 15-mer aptamer, many near background
Modification	mean fluorescence intensity [a.u.]
2'F-ANA at 3 4 6 7 9 12 15	748
2'F-ANA at 2 4 5 6 7 8 9 10 12 14 15	54.1
2'F-ANA at 1 2 3 5 6 7 8 10 13	56.4
2'F-ANA at 2 3 5 9 11	136
2'F-ANA at 2 4 6 7 8 9 10 11 12 13	86.3
2'F-ANA at 1 3 6 7 9 10 11 13 14 15	76.2
2'F-ANA at 1 3 4 5 7 8 10 11 14 15	44.3
2'F-ANA at 1 2 6 8 11 14	57.7
2'F-ANA at 3 12 15	1380
2'F-ANA at 6 7 8 10 11 15	174
2'F-ANA at 1 2 7 15	168
2'F-ANA at 2 3 8 9 10 11 15	313
2'F-ANA at 1 2 3 4 5 7 8 11 12 13 14 15	48.5
2'F-ANA at 1 2 5 6 8 13	49.7
2'F-ANA at 3 6 9 12 14 15	607
2'F-ANA at 1 3 4 6 7 10 11 13 14 15	53.8
2'F-ANA at 3 4 5 7 8 11 12 13 15	109
2'F-ANA at 1 2 4 6 7 8 10 13 15	82.1
2'F-ANA at 1 3 4 8 10 12 13 15	79
2'F-ANA at 1 2 12 14 15	70.1
2'F-ANA at 1 2 3 4 6 9 10 12 13 14	55.7
2'F-ANA at 4 5 6 7 9 11 12 15	103
2'F-ANA at 4 6 8 9 11 12 14 15	86.9
2'F-ANA at 1 2 3 4 5 10 13 14 15	43.8
2'F-ANA at 6 8 9 10 12 14	115

A few entries again (block 3):
Oligonucleotide	RBNS enrichment (R)
CCAUGUAACGCACCUGUAACUUAUCAGCCCAUGUUCAUUACGUAACUUUGUACUGUACGUCACAGUGAUGAGUGUGACAGCUCAGCUCUUUGAUUUCAUAGUGAGUUUUC	0.398
CGAGAUGAAGUUCUUUAAGUGAUGUAAGCACCCUCACCCUUACUCAAAACUUCCCACCCGACUAAAUUACCAGCAGAUAAACACUCUUCUGUGUGAGUAAACCGAGAGUU	0.807
CCUUGCCUUUCCUUUCCUGAAACUCUUUCAACACAACUGUGUCUAUAUGACUACGGCUCAUGCUUCCAAGGUCAGCUCACAUGUGACCUCUGUGAGCUGUUCCCUCGCCU	1.15
AUCAAGAGACCAUUUUAUGACACAUUAAGAAGAAAGAACCUUUUUGAAACAAACUCCAGGCCCUUUGUUGCCAGUGGCUGGGCCUAAGGGUUGCCCCGGGACCGUGCUCA	0.851
CAUAUUUUUUUCCUUACAUAAACAUCAGCUUAGGCAGUAUAAAAAAUAGGACUUGUUUUUUGUUUUUGUUUUGUUGCACUGAAGUAUGACAAAUAGUGUUAUUGGAAGGG	0.412
GUCCAGUUUCAAGGCAUGUACAAUAAGCAUGGAGUCGUAUUGAUGAGGACUUACCUCCUGAAGAUAUGCUUGUUGCUUUAUGAUAUAUGUAAACUAUUCUUUAGAAAAAU	2.76
CCUCUUCUUAUAAACGCCCUUCUAAUAAACUUUUCACCGUAAAGCUCCUGAGACAGGAGCACAGUCUAUUCCCUGCUGCUGUCUCUGGGGAAAGGGAUUUACAAGGGGAC	0.313
UAUUCUUAAUAUCCUUUUAAGAAUAUGGAGAUGAAGAUUGUUUUCUCCAAUUUUCUGUGCCAUUUUAAAUUUAACUUUGACAUCCAGCUAUAGACAGAAAUAAUAAGCCA	0.603
GAAGAUAAAGGGGCAGGAUCAAGGCUUUGUUUGAUCAUUGACCUACCCCCCCCCUCAGGUAGAUUCCCUAGGACAAUGCCAAACCCAGUUUAAGAGUUCCGAAACUGGAG	0.614
GCCCUGACCUUCUCCUGACCUGGCCUUUGACUCCCCGGAGUGGAGUGGGGUGGGAGAACCUCCUGGGCCGCCAGCCAGAGCCGGUCUUUAGGCUGUGUUGUUCGCCCAGG	0.255
GUCAAGGUUUAUUUUCACAUGAGUCCAGCUUGCAGCAAGUAAUCUUCAAAUAUUCCAGUAAGUUUUGAAAUAAUGAAUGCAUUGAAAAUAGCAUUGUUGGAAUUUAUUCC	1.04
